Experimental data pooled from the literature.
Lines come from different studies, so protocols differ. ± gives the spread as reported.

Compound | cell line | assay | test system | conditions | scale | quantity | value
CCN(CC)CC(=O)Nc1cccc(-n2cc(-c3ccc4ccc(-c5cn(-c6cccc(NC(=O)CN(CC)CC)c6)nn5)cc4c3)nn2)c1 | RCC4 | PCR angiogenesis array, measured: TGFB1 |  | 5 x IC50, 2 h, normoxia | baseline: untreated | fold regulation | 1.01 fold
CC(C)c1ccc(N(C)c2ccc3c(c2)OCC[C@H]3CNc2cnccc2C(=O)O)cc1 | HLF | cell growth or viability, ATP luminescence |  | 7 days |  | IC50 | 18 nM
Cn1ncc2cc(-c3cncc(Cl)c3N3CCC4(CCNC4=O)CC3)ccc21 | LS174T | gene expression, microarray, measured: BHLHE41 mRNA |  | concentration not given, 24 h | baseline: untreated cells | log2 fold change | 2.06
CC(C)(C)c1cc(-c2ccc3cccnc3n2)nc(-c2ccc3cccnc3n2)c1.[Cl-].[Cl-].[Ru+2].c1cnc2c(c1)ccc1cccnc12 | B16-F10 | resazurin |  | together with: light 523 nm, 20 mW, 100 J/cm2 |  | EC50 | 168 ± 4 µM
CCOc1cncc(-c2ccc(NC(=O)C3(c4ccnc(NS(=O)(=O)C5CC5)n4)CCOCC3)nc2)n1 | renal cancer | cell viability, CellTiter-Glo | DMSO 0.1% | 72 h, line code 2282 |  | IC50 | 5290 nM
Cc1ccncc1.[Cl-].[Cl-].[Ru+2].c1cc(-c2ccc3cccnc3n2)nc(-c2ccc3cccnc3n2)c1.c1ccc2cc3nc4c5cccnc5c5ncccc5c4nc3cc2c1 | B16-F10 | cytotoxicity, resazurin |  | dark |  | EC50 | 77 ± 4.3 µM
CN1CCCNC(=O)c2cccc(c2)C(=O)NCCCN(C)CCCNc2cccc3c2C(=O)c2cccc(c2C3=O)NCCC1 | SAS | RNA-Seq, measured: TRA2B mRNA |  | 1 µM, 6 h | baseline: untreated cells | log2 fold change | 0.393
CO[C@@H]1[C@@H](OC(N)=O)[C@@H](O)[C@H](Oc2ccc3c(O)c(NC(=O)c4ccc(O)c(CC=C(C)C)c4)c(=O)oc3c2C)OC1(C)C | DLD-1 BRCA2-/- |  |  | 250 µM, replicate 2 |  | colony count | 0.1
CC(C)(C)c1cc(-c2ccc3cc4ccccc4nc3n2)nc(-c2ccc3cc4ccccc4nc3n2)c1.Cc1ccncc1.[Cl-].[Cl-].[Ru+2].c1ccc2cc3nc4c5cccnc5c5ncccc5c4nc3cc2c1 | B16-F10 | photocytotoxicity, resazurin |  | visible light 400-700 nm, 20 mW, 100 J/cm2 |  | EC50 | 6.77 µM
CNS(=O)(=O)Nc1nccc(Cc2c(C)c3ccc(Oc4ncccc4F)cc3oc2=O)c1F | WILL-1 | cell viability |  | 7 days |  | IC50 | > 1000 nM
Cc1ncsc1-c1ccc(C(C)NC(=O)C2CC(O)CN2C(=O)C(NC(=O)CCCCCCCCCCN2CCCC(Nc3ncc(Cl)c(Nc4ccccc4S(=O)(=O)C(C)C)n3)C2)C(C)(C)C)cc1 (centres unmarked) | 22Rv1 | RNA-seq, measured: SEMA6A-AS1 |  | concentration not given | baseline: DMSO | log2 fold change | -1.55

Repeated from above:
Compound | cell line | assay | test system | conditions | scale | quantity | value
CC(C)(C)c1cc(-c2ccc3cc4ccccc4nc3n2)nc(-c2ccc3cc4ccccc4nc3n2)c1.Cc1ccncc1.[Cl-].[Cl-].[Ru+2].c1ccc2cc3nc4c5cccnc5c5ncccc5c4nc3cc2c1 | B16-F10 | photocytotoxicity, resazurin |  | visible light 400-700 nm, 20 mW, 100 J/cm2 |  | EC50 | 6.77 µM
